# Measured values collected from several papers.
# Parts stem from different laboratories: compare values within a part only.

# Series 1 — method: RNA Bind-n-Seq; form: RNA; medium: in vitro; tested at: 365 nM; baseline: no-protein control; direction: higher = stronger binding
# Target: RNA binding protein fox-1 homolog 2, RRM domain, GST-SBP tag (RBFOX2, Homo sapiens, UniProt O43251-10, residues 100-194)
# Setting: natural RNA segment, single round, ends assumed
# Constant ends, left off below: GGGAGUUCUACAGUCCGACGAUC … UGGAAUUCUCGGGUGCCAA
# Construct (chain): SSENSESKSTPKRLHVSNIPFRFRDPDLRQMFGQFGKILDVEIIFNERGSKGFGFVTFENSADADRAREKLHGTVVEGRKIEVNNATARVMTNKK
Strand,RBNS enrichment (R)
CUCAUCUGAAUACCAAGCACAGAAAUGAGUGGUGUGACUAAUUCCUUACCUCUCCCAAGGAGGGUACACAACUAGCACCAUUCUUGAUGUCCAGGGAAGAAGCCACCUCA,0.272
AGCUGGUGUUAAAGUUCCCACGACGCACAUGGCUUUGCCAGAAACUCUGUUUAAUGAUCGGCCUUUCACCUCUUCACUUAUCCUUAGUCCCAGUAGCCAGGAUACCUGAU,0.414
CAAGGCCAGCCUGGACGAAUUUGGGGUUGCUCUAUCCUGAGAGUUGUAACCUCAACUUCCAAAGUUUAUAUUUUCUUGAAAUGAUGGAUCUAUUGCUCAACAGUCCCUGU,0.39
AAAAAAAUGUAAAGUGACAGUUAAGGAAAAACAACAUAUUAAAAUAUCAGAAAAACUGUUUACCCAGAGAAUUAUUUUCUCCCCACUUUUAUUUUUACUCAGUGACAUAA,0.685
CCUCCUUCCCAGGGACCAGCACCUUCAAGCGCUCCAGGGCCGUGAGGGCAAGAGGGGGACCUGCCACCAGGGAGCUUCCUGGCUCUGGGGGACCCAGGUGGGACUUAGCA,2.04
AAGACCAGGUGCUGGGAUUAAGGAAACACAGGUCUGAGGGUCUGAGGGAAGGGGCCUGCCUCCCAGGGAGUCAACAUAGAUGUUCCCCAUGAACAGGGAUUUGACUUUGG,0.676
UUGAAGCUGCCCAGGAUUUUAACAGUCCAGUUCUACUGUAGCAACAUAGCAAAAAGAAAGUGGCUACAGGAUUGUGGCUAACAAGAAUAAAUACAUGGGAAAAGUGCUCC,0.383
CUCCACAGCCUGUGCUCUGUUCAGUUCCCAACACAAUCGACAAUAAACGGUGAUGCCCAUUCGGAAGAGCCUCCUGUGAGUCGUCUUUUUGUUGAAAGAAAUGGGUGGGG,1.81
CUAUGGCUAUCCGAAUUCUCUGAAAAAAUAAUAAAAGUCCCCUCUAUUAUAUGAGCCUGUACAGAAAUAUGGCUAUCAGCUGCUUUUUUUUUGCCGGGGGAGUGGGGACA,0.596
GCCCGCUCCCAGGAGGCCAGGGCAGGCCUGCGUGGGCUGGAGGCGGGCGAGGCCGGCCCACCCCCUCGCUGGCACUGACUUUGCCUUGAACAGACCCCCCGACCCUCCCC,2.05
ACCAGCAGGUCCUGCAGCUUACCAAGCCCAGGGUGUGUGGGGCCCUCACGCAGUUCGACUGGGAAAAUACAGAAGGGCUGCAGAGGCAAUAAGAAGGAAGAAAGGGAAGU,0.379
AAGCUUAACCAUACAGUAUUUCUAAGCAAAAUAAUGUACUCCAUUCUUUUGUCCAUGCUCUCAUUGCUGAUUUGUUCUUGCAGGACUUAGAGCACUUUGUUAAUGUUCUU,0.659

# Series 2 — method: protein binding microarray; form: double-stranded DNA, one strand shown; medium: in vitro; tested at: not given; baseline: not given; direction: higher = stronger binding
# Target: Histone acetyltransferase KAT6A, winged helix 2, GST fusion (KAT6A, Homo sapiens, UniProt Q92794, residues 85-181)
# Setting: 8-mer, flanks averaged, mean of 2 arrays, mostly near background
# Residues (chain): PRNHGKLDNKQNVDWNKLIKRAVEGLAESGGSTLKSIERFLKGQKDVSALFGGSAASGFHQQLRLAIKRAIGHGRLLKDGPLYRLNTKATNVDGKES
Strand,E-score
GACCTTGC,0.0751
ACTAATGA,-0.0551
CGGATTAA,0.0843
GGATACCC,0.0447
ACAATTCA,-0.0461
AACAATGC,0.011
ATAGTCCG,-0.0827
AAAGAGTT,-0.0959
CTACCATA,-0.199
GAGGCAAC,-0.108
CGGTAAAG,-0.127
CGTTAGGC,-0.184
GTAAAGAC,-0.0402
GGAGGTCA,0.0311
GGTCACGA,-0.0306
ATAGAGTC,-0.235
GTTCCGGA,0.0522
CGGGTGTC,0.102
CCTGTAAA,-0.111
GTGAGAAA,0.0772
CTGCTCGA,-0.078

# Series 3 — method: RNA Bind-n-Seq; form: RNA; medium: in vitro; tested at: 200 nM; setting: whole 134-nt RNA, ends assumed; together with: 150 mM LiCl; baseline: input library; direction: higher = stronger binding; library: 7-deaza-guanosine replaces G
# Target: Ras GTPase-activating protein-binding protein 1, full length (G3BP1, Homo sapiens, UniProt Q13283)
# Sequence of UniProt Q13283 (whole entry, looked up): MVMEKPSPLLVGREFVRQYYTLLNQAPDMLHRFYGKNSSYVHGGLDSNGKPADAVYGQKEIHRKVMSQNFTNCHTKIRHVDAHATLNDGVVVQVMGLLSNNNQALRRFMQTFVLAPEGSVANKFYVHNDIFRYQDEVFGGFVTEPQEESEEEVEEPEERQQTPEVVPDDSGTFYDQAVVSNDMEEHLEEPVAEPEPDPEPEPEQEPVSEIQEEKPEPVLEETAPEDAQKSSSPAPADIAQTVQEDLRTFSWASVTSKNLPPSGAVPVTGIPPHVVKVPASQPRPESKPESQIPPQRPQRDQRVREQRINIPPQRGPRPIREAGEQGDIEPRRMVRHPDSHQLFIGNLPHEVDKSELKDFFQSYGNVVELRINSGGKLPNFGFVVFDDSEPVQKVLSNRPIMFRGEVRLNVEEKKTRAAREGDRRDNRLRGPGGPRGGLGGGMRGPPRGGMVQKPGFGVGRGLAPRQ
# Constant ends, left off below: GGGAGUUCUACAGUCCGACGAUC … UGGAAUUCUCGGGUGUCAAGG
Strand,log2 enrichment
CUGUGCUACACAUCGUAUGUACCGAAUCGGCCCCCCCGGGGCCCCCCCGGGCCCCCCCGGGAAAGUAUUAUGUUACGCCGUUCGGAUCUG,-1.2
CCUGUGCUACACAUCGUAUGUACCGAAUCGGGUUUUUUUGGUUUUUUUGGGGUUUUUUUGGAAAGUAUUAUGUUACGCCGUUCGGAUCUG,1.03
UAAUUUUAGAGGAGGAUCUGAUGGAUAUGGCAGUGGACGUGGAUUUGGGGAUGGCUAUAAUGGGUAUGGAGGAGGACCUGGAGGUGGCAA,-0.2
CCUCAAGUCCUGUGCUACACAUCGUAUGUACCGAAUCGGGCCGGCCGGCCGGGAAAGUAUUAUGUUACGCCGUUCGGAUCUGCACUUCCA,0.629
CACAGACAACACGCACCCACACAGACACAGAGGGAAGGGGUUAGGAUGGGGACAGGGUGCACAGCAGGGCGGGGUAGGACCCCAGCCCCU,-1.11
UCCUCAAGUCCUGUGCUACACAUCGUAUGUACCGAAUCGGUUGGUUGGUUGGAAAGUAUUAUGUUACGCCGUUCGGAUCUGCACUUCCAG,1.15
UGGCCCUGGUGGCAUGCGGGGAGGAAGAGGUGGCCUCAUGGAUCGUGGUGGUCCCGGUGGAAUGUUCAGGGGUGGCCGUGGUGGAGACAG,0.0686
GCAGGAAGUAAAAACAAAUGGAAAUGCUUCGGAUAGUGGCAGGGGUGGGGGUUGAAAAGGAAAGGGUGGGAUGGGAGUGGGUAAAGAGUU,0.678
UGGCCCUGGUGGCAUGCGGGGAGGAAGAGGUGGUCUCAUGGAUCGUGGUGGUCCCGGUGGAAUGUUCAGAGGUGGCCGUGGUGGAGACAG,0.39
CACAGACAACACGCACCCACACAGACACAGAGGGAAGGGGUUGGGAUGGGGACAGUGUGCACAGCAGGGCGGGGUAGGACCCCAGCCCCU,-0.305
AAGUCCUGUGCUACACAUCGUAUGUACCGAAUCGGAAAAGGGGAAAAGGGAAAAGGAAAGUAUUAUGUUACGCCGUUCGGAUCUGCACUU,-0.226

# Series 4 — method: aptamer microarray, sandwich; form: DNA with 2'F-ANA; medium: in vitro; tested at: 200 nM; together with: Cy3 exosite-II aptamer, 400 nM; direction: higher = stronger binding; strand: GGTTGGTGTGGTTGG
# Target: Prothrombin, mature alpha-thrombin (F2, Homo sapiens, UniProt P00734)
# Setting: whole 15-mer aptamer, many near background
Modification,mean fluorescence intensity [a.u.]
2'F-ANA at 1 3 10 12 14 15,59.3
2'F-ANA at 1 2 4 5 9 14,43.1
2'F-ANA at 1 2 3 5 7 13,49.3
2'F-ANA at 1 3 7 10 14,58.7
2'F-ANA at 1 4 6 7 11 13 15,72.5
2'F-ANA at 4 6 7 8 13 14,96.4
2'F-ANA at 2 3 4 5 6 8 9 13 14,65.5
2'F-ANA at 1 4 7 8 11 13 15,101
2'F-ANA at 2 3 4 6 8 9 12 13 14,214
2'F-ANA at 3 4 6 8 9 10 13,356
2'F-ANA at 2 3 9 10 11,363
2'F-ANA at 3 4 6 7 9 10 11,225
2'F-ANA at 5 6 8 11 12 15,127
2'F-ANA at 4 5 6 7 12 15,131
2'F-ANA at 8 9 12 15,835
2'F-ANA at 1 4 6 8 9 11 15,95
2'F-ANA at 1 2 3 4 5 6 9 10 12 14 15,58.3
2'F-ANA at 1 2 5 6 7 8 9 11 12 13 14,49
2'F-ANA at 2 3 4 8 9 10 11 12 13 14,172
2'F-ANA at 2 3 4 5 6 9 10,57.1
2'F-ANA at 2 3 5 6 9 10 13,49.3
2'F-ANA at 1 2 3 5 6 7 8 14,68.9
2'F-ANA at 2 5 6 7 10 14,47
2'F-ANA at 2 6 7 11 14,128

# Some of these lines once more (series 2):
Strand,E-score
CCTGTAAA,-0.111
GGATACCC,0.0447
AAAGAGTT,-0.0959
GACCTTGC,0.0751
CTGCTCGA,-0.078
GTTCCGGA,0.0522
